Published values gathered from unrelated publications.
A part holds a random share of what one study measured. Substitutions count along the parent as printed.

Sample 1
Target: Interferon regulatory factor 3, full length, phosphomimetic (IRF3, Homo sapiens, UniProt Q14653, residues 1-427, S386D/S396D/S398D/S402D/T404D/S405D)
Method: protein-binding microarray
Form: double-stranded DNA, one strand shown
Sample: in vitro
Concentration: 2540 nM top
Setting: 60-bp whole probe
Added: salmon DNA 0.4 mg/ml
Baseline: random background probes
Direction: higher = stronger binding
Measurement: fitted relative affinity
Constant ends, left off below: GCCTAGCAC … GTCTTGATTCGCTTGACGCTGCTG
Construct (chain): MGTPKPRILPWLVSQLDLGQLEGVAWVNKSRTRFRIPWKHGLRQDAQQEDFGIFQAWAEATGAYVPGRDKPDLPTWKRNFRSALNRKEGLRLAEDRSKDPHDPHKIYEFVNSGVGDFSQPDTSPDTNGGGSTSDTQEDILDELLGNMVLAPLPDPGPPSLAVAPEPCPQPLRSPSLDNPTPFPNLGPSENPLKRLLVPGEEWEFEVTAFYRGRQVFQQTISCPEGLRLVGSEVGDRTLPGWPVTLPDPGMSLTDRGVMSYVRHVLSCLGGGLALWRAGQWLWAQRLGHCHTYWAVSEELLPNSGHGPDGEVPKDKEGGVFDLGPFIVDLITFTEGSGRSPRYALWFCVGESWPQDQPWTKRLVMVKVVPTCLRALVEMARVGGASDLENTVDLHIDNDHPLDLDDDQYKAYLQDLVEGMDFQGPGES
TTACGTATCGGTTTCGGTTAGTGCTAG: 8.14 z-score
GACGGTATCCCTCTCCTGACGTGCTAG: 5.19 z-score
TTAGGTTTCAGACTGGATTAGTGCTAG: 2.32 z-score
TTAGATATCGGGACTGGACTAGTGCTA: -0.018 z-score
TTGGGACTGGGGACTGGGTTAGTGCTA: -1.34 z-score
TTCTCTTTCACTACTCCATTGTGCTAG: 2.85 z-score
GACGGTTTCCTACTGCTCACGTGCTAG: 5.09 z-score
TTAGGACTGAGTTTCGGTTAGTGCTAG: 3.5 z-score
CCAATTCTTTTTATGCTTTCGTGCTAG: 1.85 z-score
GACGTACTGGGGTATCGAGACGTGCTA: -0.513 z-score
CACATTGTGCAATCTTAATAAGTGCTA: 1.49 z-score
TTAGGTTTCCTTCACCTTTAGTGCTAG: 3.83 z-score
GACGGACTGTACTATCGGGACGTGCTA: 0.00436 z-score
GACGGTCTCCTTTTCCAGACGTGCTAG: 5.03 z-score

Sample 2
Target: Ras GTPase-activating protein-binding protein 1, RRM domain (G3BP1, Homo sapiens, UniProt Q13283)
Chain of UniProt Q13283 (whole entry, looked up): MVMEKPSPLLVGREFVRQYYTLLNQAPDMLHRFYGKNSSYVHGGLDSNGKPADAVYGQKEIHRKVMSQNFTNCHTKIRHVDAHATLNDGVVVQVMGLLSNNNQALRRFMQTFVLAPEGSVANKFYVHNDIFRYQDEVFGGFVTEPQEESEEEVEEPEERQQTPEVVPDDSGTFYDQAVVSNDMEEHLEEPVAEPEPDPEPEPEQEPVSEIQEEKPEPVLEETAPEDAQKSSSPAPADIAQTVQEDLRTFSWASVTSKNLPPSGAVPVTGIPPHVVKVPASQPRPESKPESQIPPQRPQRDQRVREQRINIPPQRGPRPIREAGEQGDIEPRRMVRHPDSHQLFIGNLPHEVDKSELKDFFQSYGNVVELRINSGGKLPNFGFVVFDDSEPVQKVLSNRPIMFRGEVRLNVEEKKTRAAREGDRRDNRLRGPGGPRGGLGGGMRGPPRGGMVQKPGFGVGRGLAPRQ
Method: RNA Bind-n-Seq
Form: RNA
Sample: in vitro
Concentration: 1 µM
Setting: whole 134-nt RNA, ends assumed
Added: 150 mM KCl
Baseline: input library
Direction: higher = stronger binding
Measurement: log2 enrichment
Constant ends, left off below: GGGAGUUCUACAGUCCGACGAUC … UGGAAUUCUCGGGUGUCAAGG
CAAGUCCUGUGCUACACAUCGUAUGUACCGAAUCGGGAGGGAAAAAGGGUUUGGGAAAGUAUUAUGUUACGCCGUUCGGAUCUGCACUUC: 0.935
UCAAGUCCUGUGCUACACAUCGUAUGUACCGAAUCGGGAAGGGGAAGGAAGGGGAAAGUAUUAUGUUACGCCGUUCGGAUCUGCACUUCC: 0.536
UCCUGUGCUACACAUCGUAUGUACCGAAUCGGGGUUUUUGGGGUGGGGAAAAAAAGGGGAAAGUAUUAUGUUACGCCGUUCGGAUCUGCA: 0.692
UUUGAUGACAGUCUGCAGGAGCUGCCUGGUGAAGUACCUGGAGGAGAACAACACCUGCCCCACCUGCAGGAUUGUGAUCCACCAGAGCCA: -0.297
CUCAAGUCCUGUGCUACACAUCGUAUGUACCGAAUCGGUUUGGAGGAAAAAGGAAAGUAUUAUGUUACGCCGUUCGGAUCUGCACUUCCA: -0.229
ACCAUGCAAAAGGGCAUCUUUGGGAAGUGGGGCAAGGGGGGGAUAGGGAGGGGGGUAACACUUUGGGAACAGGUGGUCCCAGGUCGUUUC: -0.367
UAACUUUAGAGGAGGAUCUGAUGGAUAUGUCAGUGGACGUGGAUUUGGGGAUGGCUAUAAUGGGUAUGGAGGAGGACCUGGAGGUGGCAA: -0.793
CAAGUCCUGUGCUACACAUCGUAUGUACCGAAUCGGAAAAAAAGGUUUGGUUUGGAAAGUAUUAUGUUACGCCGUUCGGAUCUGCACUUC: -0.281
CACAGACAACACGCACCCACACAGACACAGAGGGAACGGGUUGGGAUGGGGACAGGGUGCACAGCAGGGCGGGGUAGGACCCCAGCCCCU: 0.197
UGGCCCUGGUGGCAUGCGGGGAGGAAGAGGUGGCCUCAUGGAUCGUGGUGGUCCCGGUGGAAUGUUCAGAGGUGUCCGUGGUGGAGACAG: 1.55
CCUGUGCUACACAUCGUAUGUACCGAAUCGGCCCCCCCGGCCCCCCCGGGCCCCCCCGGGAAAGUAUUAUGUUACGCCGUUCGGAUCUGC: -0.7
CUGUGCUACACAUCGUAUGUACCGAAUCGGGAAAAAAAGGGAAAAAAAGGGAAAAAAAGGGAAAGUAUUAUGUUACGCCGUUCGGAUCUG: 0.0593
UGGGAGGUGGAUUUUGUUUAUUUUUUUAGCUCAUUUCCAGGGGUGGGAAUUUUUUUUUAAUAUGUGUCAUGAGUAAAGUUGUUUUUGAAA: 1.35
GCAGGAAGUAAAAACAAAUGGAAAUGCUUCGGAUAGUGGCAGGGGUGGGGGUUGCUAGGGAAAGGGUGGGAUGGGAGUGGGUAAAGAGUU: 1.32

Sample 3
Target: RNA binding protein fox-1 homolog 2, RRM domain, GST-SBP tag (RBFOX2, Homo sapiens, UniProt O43251-10, residues 100-194)
Method: RNA Bind-n-Seq
Form: RNA
Sample: in vitro
Concentration: 365 nM
Setting: natural RNA segment, single round, ends assumed
Baseline: no-protein control
Direction: higher = stronger binding
Measurement: RBNS enrichment (R)
Constant ends, left off below: GGGAGUUCUACAGUCCGACGAUC … UGGAAUUCUCGGGUGCCAA
Construct (chain): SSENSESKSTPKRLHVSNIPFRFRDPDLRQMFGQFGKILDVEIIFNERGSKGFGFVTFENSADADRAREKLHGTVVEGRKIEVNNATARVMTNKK
AAGCAACACCGCCCAGCCCUGCUCCAGGCCCCUGCACUCCGCCCACCCCUACCCUGGCUGCACCUGAGCUUGCUGCCCCUGGGGAUGUUGCCCAGUGGCUGUGCACUGCU: 2.48
AGUUUGUAUAUUUAUAGGUAACUCCAGCUGUUGAAUUUAUACUGGGAAUCUUCAUGAGAAGCUGAAAGAAAGGGAAAAAGAAAGUGGCUUUCUGCUUUCAAAAUUGAGGA: 1.09
UGUAGCUCAGAGUGCUUGUCUAACAUGCAAAAACCCUUGGAUUCAAUUUCUAGUACUGUUAGAAGAGUGACUAGUUAGAUUCUGUGUAUGUGUGCUAUUAAUUCAUAGAA: 1.05
GUGUGUGUGCGCGCGCGCGCAUGUGCGCAUACUGUGUAAUGUUGGAAAAGGGAUGAAAUUGAAGAAACUGAAACUUCACGGAAUUUGGAAGAGUGGUUUUAACAUGGGAC: 1.31
CCUGGCCAUGCAUUGCCCAAGCGUGAACGUAGUGGCACCCACGUCUACCGCAGGCGUCCAGCCAGGAAAGAGCGACCCCCCUCUUGGACUGUCUUCUGGGCCCUUCCAAG: 0.519
GUGACUUGAUGCUCUAAAUCAUUGUAGGAUUUACCGCUAGAUGGUUUUGAACCCUUGAACCUGUGAUUGUGACCCAUGAGGGGGGACCUUUCAGUGCUAAAGCUGAUCAU: 0.54
UUUUAGGAACUGACAUGAUAAGGUGGUUCUUUCAUAACUCUAAUGCCAUCCAACAUAGCCCUGGGAGAGGCAUGUUAGGUUUCAGAGAUUUUCUCCAUGGAGCAAGGUGC: 0.943
GAAACUCAAUGUUUUUUUAAGUUUUGUUUUCCCUUUAAAGCCUUUUUUUAGGCCACAUUGACAGUGGUGGGCGGGGAGAAGAUAGGGAACACUCAUCCCUGGUCGUCUAU: 0.46
GGUUCCUCCUGGUUUUCUUUUGUUACAACCACCCUUGCCUGUUUACAUUAAUUGCAAGGAGCAUAACGUACAGGCUGUAUGUACAAUCCUGGGCAUUGACUCUGUGACAU: 0.562
ACAGGAUCUUAUCAGAGGUGGACAACGUGAAGAUUUCCUUUUCCAUUUUCAAUAAACUUUGGAACAACCUUCUCGUAUCUCCCCUAGAGUUUCGUGCCCCUCUGAACUGU: 0.315
GUGGCCAAGCGAGGUCUCAGGUGCAAAGCAAAAGGACCAUUUAAAGUAAAAUAGCUUGGAUUCAAUCAUGUGACUUUUAAAUUGGCUCAGAAAGCAAUUUUGUAAUUUCA: 0.789
UUGGUAUUCGCUUGAGAAAAAAAGAAUAGUUGAACCUAUUUCUCUUUCUUUACAAGAUGGGUCCAGGAUUCCUCUUUUCUCUGCCAUAAAUGAUUAAUUAAAUAGCUUUU: 0.561

Sample 4
Target: Histone acetyltransferase KAT6A, winged helix 2, GST fusion (KAT6A, Homo sapiens, UniProt Q92794, residues 85-181)
Method: protein binding microarray
Form: double-stranded DNA, one strand shown
Sample: in vitro
Concentration: not given
Setting: 8-mer, flanks averaged, mean of 2 arrays, mostly near background
Baseline: not given
Direction: higher = stronger binding
Measurement: E-score
Construct (chain): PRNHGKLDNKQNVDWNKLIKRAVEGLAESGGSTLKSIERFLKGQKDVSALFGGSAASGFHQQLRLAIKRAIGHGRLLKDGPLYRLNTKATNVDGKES
CCTAAGGA: -0.0982
ACCAGCAA: 0.0728
GCCATCTA: -0.153
GTCTCGGA: 0.0356
GCAGACGA: 0.0708
AAGGACAC: 0.0189
ACCGCTTC: 0.0147
GTCGTCAA: -0.0397
AGTATTGC: -0.00988
CCAGTACC: 0.0347
CGTATGTA: -0.346
GGTCTAGA: -0.234
TCACTCAA: -0.0179
GCCGCCCA: 0.101
ATCGCACA: 0.122
CGCGTGAG: 0.24
AACTTGGT: -0.0783
CCACCGGC: 0.102
CCTACCAC: -0.218
CGCACCGC: 0.147
GATGACGC: -0.00322
CGCTGGGA: 0.121
CCAACATC: -0.0185
CGCTGGAG: 0.0759
AAACGGAG: 0.11

Sample 5
Target: CCND3, cyclin fold, Cln2 fusion (human)
Method: yeast growth competition, sequencing
Sample: yeast
Setting: strong parent motif
Baseline: not given
Direction: higher = stronger binding
Measurement: normalised enrichment score
Parent: INSM1 docking peptide (human); PKAIRKLHFEDEV
I4E: 0.165
R5C: 0.542
E12D: 1.14
H8F: 1.04
A3Q: 0.0965
K2C: 1.63
D11H: 0.511
D11K: 0.242
A3G: 0.911
F9K: -0.366
L7Q: -0.11
F9M: 0.262
E10Y: 0.478
L7W: -0.212
I4D: -0.00669
E10A: 0.477
E10D: 0.883
R5H: -0.0602

Some of these lines once more (sample 5):
H8F: 1.04
A3Q: 0.0965
K2C: 1.63
D11H: 0.511
D11K: 0.242
A3G: 0.911
